Results collected from several papers.
Parts stem from different laboratories: compare values within a part only. Several values in a cell are separate wells, animals, samples, runs or records.
Chain of UniProt Q9H4B4 (whole entry, looked up): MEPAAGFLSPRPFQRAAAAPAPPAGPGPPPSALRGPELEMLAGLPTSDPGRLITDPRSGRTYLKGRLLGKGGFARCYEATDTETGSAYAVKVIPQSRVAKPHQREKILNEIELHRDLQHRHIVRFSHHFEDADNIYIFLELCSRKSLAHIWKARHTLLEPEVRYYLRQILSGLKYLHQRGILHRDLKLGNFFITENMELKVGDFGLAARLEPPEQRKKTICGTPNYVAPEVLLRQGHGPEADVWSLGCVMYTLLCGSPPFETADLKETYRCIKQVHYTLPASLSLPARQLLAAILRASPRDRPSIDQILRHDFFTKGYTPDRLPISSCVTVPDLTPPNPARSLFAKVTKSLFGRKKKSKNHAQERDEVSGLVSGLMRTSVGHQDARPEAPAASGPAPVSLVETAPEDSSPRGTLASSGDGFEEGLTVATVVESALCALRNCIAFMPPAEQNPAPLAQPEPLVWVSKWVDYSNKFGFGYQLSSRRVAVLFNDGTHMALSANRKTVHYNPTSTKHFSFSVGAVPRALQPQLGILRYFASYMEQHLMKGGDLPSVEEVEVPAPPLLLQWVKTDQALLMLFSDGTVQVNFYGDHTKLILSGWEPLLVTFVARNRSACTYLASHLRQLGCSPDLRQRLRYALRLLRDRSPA
Chain of UniProt P37173 (whole entry, looked up): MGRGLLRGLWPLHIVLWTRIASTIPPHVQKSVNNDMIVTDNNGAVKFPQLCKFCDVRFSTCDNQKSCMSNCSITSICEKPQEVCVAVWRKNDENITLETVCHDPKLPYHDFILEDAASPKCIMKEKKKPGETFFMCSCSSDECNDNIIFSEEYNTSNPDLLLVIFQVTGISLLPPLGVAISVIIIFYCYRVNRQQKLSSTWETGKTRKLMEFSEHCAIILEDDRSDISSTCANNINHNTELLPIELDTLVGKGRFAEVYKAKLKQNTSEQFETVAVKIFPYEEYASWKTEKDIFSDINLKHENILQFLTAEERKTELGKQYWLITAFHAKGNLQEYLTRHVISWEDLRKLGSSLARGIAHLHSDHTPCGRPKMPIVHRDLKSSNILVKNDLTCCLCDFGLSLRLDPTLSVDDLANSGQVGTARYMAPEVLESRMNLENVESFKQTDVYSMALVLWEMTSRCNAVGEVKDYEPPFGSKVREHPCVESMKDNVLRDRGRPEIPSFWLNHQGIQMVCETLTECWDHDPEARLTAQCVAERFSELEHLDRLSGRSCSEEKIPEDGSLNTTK
Chain of UniProt P35590 (whole entry, looked up): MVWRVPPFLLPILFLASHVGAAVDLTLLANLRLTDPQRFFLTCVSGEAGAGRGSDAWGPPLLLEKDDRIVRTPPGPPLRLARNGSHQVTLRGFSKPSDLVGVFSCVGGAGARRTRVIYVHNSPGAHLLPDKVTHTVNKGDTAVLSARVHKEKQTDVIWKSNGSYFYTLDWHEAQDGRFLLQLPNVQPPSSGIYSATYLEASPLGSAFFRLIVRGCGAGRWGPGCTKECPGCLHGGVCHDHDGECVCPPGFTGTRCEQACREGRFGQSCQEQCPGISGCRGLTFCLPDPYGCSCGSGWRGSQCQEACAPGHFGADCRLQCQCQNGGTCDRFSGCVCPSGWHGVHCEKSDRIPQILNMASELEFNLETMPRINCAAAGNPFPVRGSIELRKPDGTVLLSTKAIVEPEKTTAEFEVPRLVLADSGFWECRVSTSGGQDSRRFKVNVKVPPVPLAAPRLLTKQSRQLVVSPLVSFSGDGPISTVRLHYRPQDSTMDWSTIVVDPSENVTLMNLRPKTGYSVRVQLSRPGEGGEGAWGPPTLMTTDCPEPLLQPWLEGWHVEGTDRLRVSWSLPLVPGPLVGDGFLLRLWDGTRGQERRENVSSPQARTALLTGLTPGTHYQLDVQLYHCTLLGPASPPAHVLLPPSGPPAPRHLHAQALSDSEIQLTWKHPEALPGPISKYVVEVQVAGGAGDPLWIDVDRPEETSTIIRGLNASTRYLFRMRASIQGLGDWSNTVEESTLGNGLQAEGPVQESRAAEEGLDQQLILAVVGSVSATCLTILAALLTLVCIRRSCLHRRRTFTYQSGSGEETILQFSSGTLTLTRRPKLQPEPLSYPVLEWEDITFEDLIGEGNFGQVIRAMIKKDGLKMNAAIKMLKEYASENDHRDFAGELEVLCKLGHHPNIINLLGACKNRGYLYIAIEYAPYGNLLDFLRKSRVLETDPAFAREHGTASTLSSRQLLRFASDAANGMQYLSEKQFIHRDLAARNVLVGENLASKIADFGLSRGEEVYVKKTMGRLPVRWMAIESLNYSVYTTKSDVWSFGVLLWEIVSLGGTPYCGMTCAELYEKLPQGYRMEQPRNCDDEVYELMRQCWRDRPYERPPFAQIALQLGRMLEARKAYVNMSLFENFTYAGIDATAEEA
Chain of UniProt P35626 (whole entry, looked up): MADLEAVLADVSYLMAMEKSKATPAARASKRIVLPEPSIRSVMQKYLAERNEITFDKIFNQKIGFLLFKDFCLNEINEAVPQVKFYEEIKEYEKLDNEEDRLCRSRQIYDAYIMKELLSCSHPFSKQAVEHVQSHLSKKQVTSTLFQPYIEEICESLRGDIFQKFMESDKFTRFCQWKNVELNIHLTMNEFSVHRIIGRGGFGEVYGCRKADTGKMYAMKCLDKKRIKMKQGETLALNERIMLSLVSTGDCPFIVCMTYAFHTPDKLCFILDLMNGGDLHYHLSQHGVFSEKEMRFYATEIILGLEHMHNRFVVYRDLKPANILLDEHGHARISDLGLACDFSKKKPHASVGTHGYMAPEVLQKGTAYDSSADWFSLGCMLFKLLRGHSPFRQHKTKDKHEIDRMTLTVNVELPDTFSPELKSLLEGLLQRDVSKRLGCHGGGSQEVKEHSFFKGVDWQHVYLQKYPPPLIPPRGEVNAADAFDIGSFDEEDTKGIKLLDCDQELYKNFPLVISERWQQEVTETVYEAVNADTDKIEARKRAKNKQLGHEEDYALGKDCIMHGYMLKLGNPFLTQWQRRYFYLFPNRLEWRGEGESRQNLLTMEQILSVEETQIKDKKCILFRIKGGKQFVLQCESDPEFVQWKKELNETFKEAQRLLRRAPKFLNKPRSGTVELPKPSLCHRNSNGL
Chain of UniProt Q9P2K8 (whole entry, unmodified, looked up): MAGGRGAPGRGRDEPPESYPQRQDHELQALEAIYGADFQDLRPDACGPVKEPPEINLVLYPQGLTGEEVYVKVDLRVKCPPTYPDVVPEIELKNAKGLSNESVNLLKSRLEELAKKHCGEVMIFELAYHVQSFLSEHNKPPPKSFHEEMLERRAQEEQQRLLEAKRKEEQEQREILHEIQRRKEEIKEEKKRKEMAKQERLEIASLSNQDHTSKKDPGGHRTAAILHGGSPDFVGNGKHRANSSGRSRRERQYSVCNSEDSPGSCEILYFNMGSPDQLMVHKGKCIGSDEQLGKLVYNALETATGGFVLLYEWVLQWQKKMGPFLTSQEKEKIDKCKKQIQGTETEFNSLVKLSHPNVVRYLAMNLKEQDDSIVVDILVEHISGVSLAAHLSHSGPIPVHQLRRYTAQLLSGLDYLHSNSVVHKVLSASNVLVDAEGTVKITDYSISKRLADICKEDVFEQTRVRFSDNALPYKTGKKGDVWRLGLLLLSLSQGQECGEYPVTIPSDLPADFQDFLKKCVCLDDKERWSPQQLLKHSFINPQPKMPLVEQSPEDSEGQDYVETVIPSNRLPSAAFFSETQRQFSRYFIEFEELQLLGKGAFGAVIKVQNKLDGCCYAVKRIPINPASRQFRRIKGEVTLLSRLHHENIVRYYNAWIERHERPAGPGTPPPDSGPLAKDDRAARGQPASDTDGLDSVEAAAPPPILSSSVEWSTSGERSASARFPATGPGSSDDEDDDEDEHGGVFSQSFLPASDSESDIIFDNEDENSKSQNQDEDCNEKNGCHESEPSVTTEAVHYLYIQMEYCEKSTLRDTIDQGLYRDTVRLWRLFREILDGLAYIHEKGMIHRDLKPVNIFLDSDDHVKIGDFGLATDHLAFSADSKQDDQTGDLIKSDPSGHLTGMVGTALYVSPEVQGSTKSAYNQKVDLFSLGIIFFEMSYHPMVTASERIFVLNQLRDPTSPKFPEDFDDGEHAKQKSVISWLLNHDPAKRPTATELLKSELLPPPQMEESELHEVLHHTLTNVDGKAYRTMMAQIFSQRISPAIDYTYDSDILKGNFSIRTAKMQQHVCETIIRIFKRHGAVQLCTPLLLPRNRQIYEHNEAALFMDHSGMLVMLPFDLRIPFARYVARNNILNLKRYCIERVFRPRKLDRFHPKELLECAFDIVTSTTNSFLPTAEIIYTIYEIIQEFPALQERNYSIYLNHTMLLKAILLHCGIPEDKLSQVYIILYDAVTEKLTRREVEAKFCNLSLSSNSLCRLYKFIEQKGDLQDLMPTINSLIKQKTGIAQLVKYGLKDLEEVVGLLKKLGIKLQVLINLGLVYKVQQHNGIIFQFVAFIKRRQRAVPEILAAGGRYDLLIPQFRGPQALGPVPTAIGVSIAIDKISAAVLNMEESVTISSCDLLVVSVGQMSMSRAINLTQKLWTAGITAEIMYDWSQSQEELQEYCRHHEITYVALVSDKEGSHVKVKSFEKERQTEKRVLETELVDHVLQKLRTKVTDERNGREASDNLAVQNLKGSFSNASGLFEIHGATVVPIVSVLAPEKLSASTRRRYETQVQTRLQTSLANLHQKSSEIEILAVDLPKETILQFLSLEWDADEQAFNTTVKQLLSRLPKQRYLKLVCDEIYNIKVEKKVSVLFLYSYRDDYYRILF
Chain of UniProt P11802 (whole entry, looked up): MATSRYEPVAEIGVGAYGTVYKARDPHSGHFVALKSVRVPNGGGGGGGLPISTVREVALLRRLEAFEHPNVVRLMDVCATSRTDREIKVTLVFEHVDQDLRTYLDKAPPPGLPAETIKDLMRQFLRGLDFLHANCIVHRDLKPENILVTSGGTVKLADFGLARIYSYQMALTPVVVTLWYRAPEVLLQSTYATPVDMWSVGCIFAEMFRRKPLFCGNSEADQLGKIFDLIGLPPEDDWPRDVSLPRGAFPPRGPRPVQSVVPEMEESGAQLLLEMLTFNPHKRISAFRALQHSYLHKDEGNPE

Set 1
SMILES: c1ccc(N2CCN(Cc3nc4ccccc4[nH]3)CC2)nc1
Method: competition with immobilised ligand
Tested at: 1 µM
target | observed | remaining binding [%]
Tyrosine-protein kinase receptor Tie-1 (TIE1, Homo sapiens, UniProt P35590) | cell-free assay | 96
Mitogen-activated protein kinase kinase kinase 3 (MAP3K3, Homo sapiens, UniProt Q99759) | binding | 100
TGF-beta receptor type-2 (TGFBR2, Homo sapiens, UniProt P37173) | cell-free assay | 88
Proto-oncogene tyrosine-protein kinase receptor Ret (RET, Homo sapiens, UniProt P07949, V804L) | cell-free assay | 100
Mitogen-activated protein kinase kinase kinase 20 (MAP3K20, Homo sapiens, UniProt Q9NYL2) | binding | 92
MAP/microtubule affinity-regulating kinase 3 (MARK3, Homo sapiens, UniProt P27448) | binding | 100
Mitogen-activated protein kinase kinase kinase kinase 3 (MAP4K3, Homo sapiens, UniProt Q8IVH8) | binding | 100
Ephrin type-A receptor 3 (EPHA3, Homo sapiens, UniProt P29320) | cell-free assay | 100
Phosphorylase b kinase gamma catalytic chain, liver/testis isoform (PHKG2, Homo sapiens, UniProt P15735) | cell-free assay | 82
High affinity nerve growth factor receptor (NTRK1, Homo sapiens, UniProt P04629) | cell-free assay | 100
Tyrosine-protein kinase ABL1, phosphorylated (ABL1, Homo sapiens, UniProt P00519, Q252H) | binding | 100
Tyrosine-protein kinase BTK (BTK, Homo sapiens, UniProt Q06187) | cell-free assay | 96
Phosphatidylinositol 4,5-bisphosphate 3-kinase catalytic subunit alpha isoform (PIK3CA, Homo sapiens, UniProt P42336, C420R) | cell-free assay | 100
Proto-oncogene tyrosine-protein kinase ROS (ROS1, Homo sapiens, UniProt P08922) | cell-free assay | 100
Phosphatidylinositol 3-kinase C2 domain-containing subunit gamma (PIK3C2G, Homo sapiens, UniProt O75747) | binding | 100
Serine/threonine-protein kinase TAO2 (TAOK2, Homo sapiens, UniProt Q9UL54) | binding | 83
Tyrosine-protein kinase CSK (CSK, Homo sapiens, UniProt P41240) | cell-free assay | 100
Serine/threonine-protein kinase PLK3 (PLK3, Homo sapiens, UniProt Q9H4B4) | binding | 100
Tyrosine-protein kinase ITK/TSK (ITK, Homo sapiens, UniProt Q08881) | cell-free assay | 100
Tyrosine-protein kinase ABL1, non-phosphorylated (ABL1, Homo sapiens, UniProt P00519, F317L) | binding | 100
Mitogen-activated protein kinase kinase kinase 11 (MAP3K11, Homo sapiens, UniProt Q16584) | binding | 100
Serine/threonine-protein kinase tousled-like 1 (TLK1, Homo sapiens, UniProt Q9UKI8) | cell-free assay | 95
Rhodopsin kinase GRK7 (GRK7, Homo sapiens, UniProt Q8WTQ7) | binding | 100
eIF-2-alpha kinase GCN2, C-terminal kinase domain (EIF2AK4, Homo sapiens, UniProt Q9P2K8, S808G) | binding | 65
Testis-specific serine/threonine-protein kinase 3 (TSSK3, Homo sapiens, UniProt Q96PN8) | binding | 92

Set 2
Structure (SMILES): CC(C)S(=O)(=O)c1ccc2nccc(Nc3ccc4sc(C5CCCC5)nc4c3)c2c1
Observed: enzyme activity
Action: inhibitor
Tested at: 1 µM
target | activity vs control
Serine/threonine-protein kinase PLK3 (PLK3, Homo sapiens, UniProt Q9H4B4) | 99%
Serine/threonine-protein kinase WNK3 (WNK3, Homo sapiens, UniProt Q9BYP7) | 117%
Homeodomain-interacting protein kinase 1 (HIPK1, Homo sapiens, UniProt Q86Z02) | 99%
Protein kinase C epsilon type (PRKCE, Homo sapiens, UniProt Q02156) | 94%

Set 3
SMILES: c1ccc(Oc2ccc(Nc3c4c(nc5ccccc35)CCC4)cc2)cc1
Organism: Leishmania donovani
observed | method | strain | medium | tested at | time | inhibition
parasite growth | high-content imaging | MHOM/IN/80/DD8 | amastigotes in THP-1 cells | 8 µM | – | 100%
parasite viability | resazurin | DD8 | promastigotes | 3.33 µM | – | 87% and 94% and 99% and 90% and 93%
parasite killing | – | DD8 | intracellular amastigotes | 4 µM | 48 h | 76% and 66% and 85%
parasite killing | – | DD8 | intracellular amastigotes | 4 µM | 24 h | 54% and 50% and 61%
parasite viability | resazurin | DD8 | promastigotes | 0.066 µM | – | -4% and -5%
parasite killing | – | DD8 | intracellular amastigotes | 0.008 µM | 96 h | 6%

Set 4
SMILES: Nc1nccc(-c2c(-c3ccc(F)cc3)ncn2C2CCNCC2)n1
Observed: enzyme activity
Action: inhibitor
Tested at: 0.5 µM
Relative to: control
target | remaining activity [%]
Cyclin-dependent kinase 5, with p25 (CDK5, Homo sapiens, UniProt Q00535) | 95.4
TGF-beta receptor type-2 (TGFBR2, Homo sapiens, UniProt P37173) | 119
Inhibitor of nuclear factor kappa-B kinase subunit beta (IKBKB, Homo sapiens, UniProt O14920) | 104
Death-associated protein kinase 2 (DAPK2, Homo sapiens, UniProt Q9UIK4) | 94.1
Protein kinase C alpha type (PRKCA, Homo sapiens, UniProt P17252) | 89.1
Serine/threonine-protein kinase STK11 (STK11, Homo sapiens, UniProt Q15831) | 89.1
G protein-coupled receptor kinase 3 (GRK3, Homo sapiens, UniProt P35626) | 97.6
Calcium/calmodulin-dependent protein kinase type II subunit delta (CAMK2D, Homo sapiens, UniProt Q13557) | 100
Serine/threonine-protein kinase OSR1 (OXSR1, Homo sapiens, UniProt O95747) | 101
Cyclin-dependent kinase 4, with cyclin D1 (CDK4, Homo sapiens, UniProt P11802) | 99.9
TGF-beta receptor type-1 (TGFBR1, Homo sapiens, UniProt P36897) | 102
Inhibitor of nuclear factor kappa-B kinase subunit epsilon (IKBKE, Homo sapiens, UniProt Q14164) | 99.5
STE20/SPS1-related proline-alanine-rich protein kinase (STK39, Homo sapiens, UniProt Q9UEW8) | 93.5
Protein kinase C beta type, isoform beta-I (PRKCB, Homo sapiens, UniProt P05771) | 91
Death-associated protein kinase 1 (DAPK1, Homo sapiens, UniProt P53355) | 88.2
